Measured values collected from several papers.
Lines come from different studies, so protocols differ. Several values in a cell are separate wells, animals, samples, runs or records. ± gives the spread as reported.
prp N63Q: Ribosomal processing cysteine protease Prp (prp, Staphylococcus aureus, UniProt Q2FXS9, N63Q)
ADRA2A: Alpha-2A adrenergic receptor (ADRA2A, Homo sapiens, UniProt P08913)
Sequence of UniProt P08913 (whole entry, looked up): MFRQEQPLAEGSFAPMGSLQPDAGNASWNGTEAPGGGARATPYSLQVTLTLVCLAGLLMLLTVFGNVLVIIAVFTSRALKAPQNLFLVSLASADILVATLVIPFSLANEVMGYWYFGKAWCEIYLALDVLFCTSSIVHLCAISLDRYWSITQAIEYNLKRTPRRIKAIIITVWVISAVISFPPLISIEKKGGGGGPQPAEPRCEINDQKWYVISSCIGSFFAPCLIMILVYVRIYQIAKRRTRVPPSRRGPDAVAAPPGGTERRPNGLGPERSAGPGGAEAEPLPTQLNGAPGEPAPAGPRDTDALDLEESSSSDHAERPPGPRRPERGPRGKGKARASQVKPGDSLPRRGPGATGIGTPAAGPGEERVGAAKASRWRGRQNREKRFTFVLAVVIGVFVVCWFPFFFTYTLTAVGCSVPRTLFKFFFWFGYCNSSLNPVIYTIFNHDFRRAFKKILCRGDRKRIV
F2: Prothrombin (F2, Homo sapiens, UniProt P00734)
HTR7: 5-hydroxytryptamine receptor 7 (HTR7, Homo sapiens, UniProt P34969)
Sequence of UniProt P34969 (whole entry, looked up): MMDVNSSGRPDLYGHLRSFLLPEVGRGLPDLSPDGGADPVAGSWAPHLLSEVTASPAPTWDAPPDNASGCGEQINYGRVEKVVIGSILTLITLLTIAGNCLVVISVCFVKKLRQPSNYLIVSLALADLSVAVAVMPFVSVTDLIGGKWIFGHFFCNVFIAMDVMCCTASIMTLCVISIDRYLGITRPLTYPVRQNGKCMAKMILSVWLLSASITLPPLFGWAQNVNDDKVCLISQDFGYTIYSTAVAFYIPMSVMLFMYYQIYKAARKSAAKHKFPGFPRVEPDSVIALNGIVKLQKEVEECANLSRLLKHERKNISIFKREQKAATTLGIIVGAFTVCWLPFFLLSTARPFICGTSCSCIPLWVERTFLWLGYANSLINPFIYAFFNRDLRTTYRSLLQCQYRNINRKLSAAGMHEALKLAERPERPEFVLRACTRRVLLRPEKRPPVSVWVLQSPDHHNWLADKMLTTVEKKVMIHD
Sequence of UniProt P19525 (whole entry, looked up): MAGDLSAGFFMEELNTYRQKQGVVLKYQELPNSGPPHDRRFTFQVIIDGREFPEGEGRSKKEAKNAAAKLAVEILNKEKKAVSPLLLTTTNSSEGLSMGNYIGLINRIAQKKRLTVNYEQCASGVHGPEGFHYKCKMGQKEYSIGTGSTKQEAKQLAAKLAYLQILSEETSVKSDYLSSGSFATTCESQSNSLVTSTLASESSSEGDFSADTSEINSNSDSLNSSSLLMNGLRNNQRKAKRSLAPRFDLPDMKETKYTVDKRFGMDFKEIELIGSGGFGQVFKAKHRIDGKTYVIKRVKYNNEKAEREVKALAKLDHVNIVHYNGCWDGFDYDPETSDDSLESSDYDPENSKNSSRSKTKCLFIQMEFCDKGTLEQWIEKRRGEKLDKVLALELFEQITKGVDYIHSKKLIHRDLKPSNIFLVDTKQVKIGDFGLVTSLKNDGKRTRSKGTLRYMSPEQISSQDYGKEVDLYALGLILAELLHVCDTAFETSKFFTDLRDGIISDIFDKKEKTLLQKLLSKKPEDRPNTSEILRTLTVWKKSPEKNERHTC
Sequence of UniProt Q96PF2 (whole entry, looked up): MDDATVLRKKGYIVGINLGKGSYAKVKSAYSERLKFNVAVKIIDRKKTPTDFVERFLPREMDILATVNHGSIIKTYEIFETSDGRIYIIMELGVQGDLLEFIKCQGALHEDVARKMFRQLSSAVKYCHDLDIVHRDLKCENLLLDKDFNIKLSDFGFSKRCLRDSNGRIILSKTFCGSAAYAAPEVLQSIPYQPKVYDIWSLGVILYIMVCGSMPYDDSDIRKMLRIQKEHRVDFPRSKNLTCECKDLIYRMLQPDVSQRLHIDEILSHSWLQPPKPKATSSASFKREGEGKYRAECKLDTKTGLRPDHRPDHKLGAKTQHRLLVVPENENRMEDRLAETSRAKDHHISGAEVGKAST
Sequence of UniProt Q15349 (whole entry, looked up): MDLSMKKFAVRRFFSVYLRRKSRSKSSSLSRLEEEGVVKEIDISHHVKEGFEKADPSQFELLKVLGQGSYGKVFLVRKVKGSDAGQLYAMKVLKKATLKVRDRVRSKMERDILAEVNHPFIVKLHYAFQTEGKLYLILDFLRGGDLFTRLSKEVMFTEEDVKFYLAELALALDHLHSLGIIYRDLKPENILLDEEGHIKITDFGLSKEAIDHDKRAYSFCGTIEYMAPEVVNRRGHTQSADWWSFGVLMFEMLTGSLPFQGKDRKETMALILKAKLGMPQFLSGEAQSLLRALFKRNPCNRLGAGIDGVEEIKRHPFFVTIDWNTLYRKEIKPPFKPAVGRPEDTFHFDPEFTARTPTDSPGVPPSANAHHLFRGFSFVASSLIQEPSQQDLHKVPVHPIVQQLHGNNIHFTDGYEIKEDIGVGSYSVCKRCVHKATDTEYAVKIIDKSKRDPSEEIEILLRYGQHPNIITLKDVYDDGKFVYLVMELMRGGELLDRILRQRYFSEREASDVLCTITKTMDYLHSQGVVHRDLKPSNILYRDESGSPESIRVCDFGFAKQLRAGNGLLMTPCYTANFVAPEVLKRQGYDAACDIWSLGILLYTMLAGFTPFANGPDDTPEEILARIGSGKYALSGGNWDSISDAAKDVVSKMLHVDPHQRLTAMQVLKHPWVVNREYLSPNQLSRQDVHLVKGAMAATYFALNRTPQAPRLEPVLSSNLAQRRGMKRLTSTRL
Sequence of UniProt Q8R2Y0 (whole entry, looked up): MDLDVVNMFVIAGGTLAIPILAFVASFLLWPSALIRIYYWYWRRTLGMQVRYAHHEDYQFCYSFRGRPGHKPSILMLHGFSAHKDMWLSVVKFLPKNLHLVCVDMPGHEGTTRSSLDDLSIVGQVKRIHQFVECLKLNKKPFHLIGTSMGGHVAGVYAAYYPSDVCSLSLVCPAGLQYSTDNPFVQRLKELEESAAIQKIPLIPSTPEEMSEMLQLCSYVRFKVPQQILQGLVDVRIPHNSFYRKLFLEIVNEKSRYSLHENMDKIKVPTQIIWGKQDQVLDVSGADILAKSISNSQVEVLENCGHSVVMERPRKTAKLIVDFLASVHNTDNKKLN
Sequence of UniProt P05067 (whole entry, looked up): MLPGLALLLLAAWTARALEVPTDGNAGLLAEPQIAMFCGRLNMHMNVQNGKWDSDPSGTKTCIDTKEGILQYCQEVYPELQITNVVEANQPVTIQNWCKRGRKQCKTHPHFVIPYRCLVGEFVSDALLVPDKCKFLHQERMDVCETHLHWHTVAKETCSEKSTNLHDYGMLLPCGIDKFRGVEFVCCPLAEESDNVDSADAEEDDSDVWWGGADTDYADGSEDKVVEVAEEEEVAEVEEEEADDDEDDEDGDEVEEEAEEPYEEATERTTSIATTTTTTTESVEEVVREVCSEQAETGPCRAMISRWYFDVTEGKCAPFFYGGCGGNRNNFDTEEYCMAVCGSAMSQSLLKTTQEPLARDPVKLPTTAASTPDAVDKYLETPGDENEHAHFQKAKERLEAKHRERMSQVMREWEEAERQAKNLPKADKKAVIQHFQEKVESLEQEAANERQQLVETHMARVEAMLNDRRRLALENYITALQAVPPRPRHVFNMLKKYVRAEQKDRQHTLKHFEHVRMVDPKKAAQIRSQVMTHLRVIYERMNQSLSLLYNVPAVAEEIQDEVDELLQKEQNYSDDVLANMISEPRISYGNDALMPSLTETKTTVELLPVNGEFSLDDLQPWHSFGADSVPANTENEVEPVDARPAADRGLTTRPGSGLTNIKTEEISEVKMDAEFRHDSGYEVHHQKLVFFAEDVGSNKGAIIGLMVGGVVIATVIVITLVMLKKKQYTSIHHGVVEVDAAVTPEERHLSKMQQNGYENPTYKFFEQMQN
Sequence of UniProt Q09013 (whole entry, looked up): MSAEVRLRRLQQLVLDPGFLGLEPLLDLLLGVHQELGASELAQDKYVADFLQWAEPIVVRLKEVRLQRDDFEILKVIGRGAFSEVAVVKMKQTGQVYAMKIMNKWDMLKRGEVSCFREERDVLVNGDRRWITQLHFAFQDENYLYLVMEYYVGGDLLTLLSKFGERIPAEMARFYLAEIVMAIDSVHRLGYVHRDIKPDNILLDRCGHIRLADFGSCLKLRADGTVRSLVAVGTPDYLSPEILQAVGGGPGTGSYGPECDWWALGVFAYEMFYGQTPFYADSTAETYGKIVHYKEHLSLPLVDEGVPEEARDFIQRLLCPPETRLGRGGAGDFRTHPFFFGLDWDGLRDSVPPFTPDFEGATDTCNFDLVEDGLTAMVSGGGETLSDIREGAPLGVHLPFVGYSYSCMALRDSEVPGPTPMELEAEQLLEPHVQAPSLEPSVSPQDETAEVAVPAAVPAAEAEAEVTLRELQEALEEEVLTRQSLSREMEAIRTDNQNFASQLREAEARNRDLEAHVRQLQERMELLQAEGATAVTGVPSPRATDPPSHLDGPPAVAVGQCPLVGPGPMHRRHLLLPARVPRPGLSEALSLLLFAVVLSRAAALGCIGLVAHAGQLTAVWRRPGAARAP
Sequence of UniProt P97612 (whole entry, looked up): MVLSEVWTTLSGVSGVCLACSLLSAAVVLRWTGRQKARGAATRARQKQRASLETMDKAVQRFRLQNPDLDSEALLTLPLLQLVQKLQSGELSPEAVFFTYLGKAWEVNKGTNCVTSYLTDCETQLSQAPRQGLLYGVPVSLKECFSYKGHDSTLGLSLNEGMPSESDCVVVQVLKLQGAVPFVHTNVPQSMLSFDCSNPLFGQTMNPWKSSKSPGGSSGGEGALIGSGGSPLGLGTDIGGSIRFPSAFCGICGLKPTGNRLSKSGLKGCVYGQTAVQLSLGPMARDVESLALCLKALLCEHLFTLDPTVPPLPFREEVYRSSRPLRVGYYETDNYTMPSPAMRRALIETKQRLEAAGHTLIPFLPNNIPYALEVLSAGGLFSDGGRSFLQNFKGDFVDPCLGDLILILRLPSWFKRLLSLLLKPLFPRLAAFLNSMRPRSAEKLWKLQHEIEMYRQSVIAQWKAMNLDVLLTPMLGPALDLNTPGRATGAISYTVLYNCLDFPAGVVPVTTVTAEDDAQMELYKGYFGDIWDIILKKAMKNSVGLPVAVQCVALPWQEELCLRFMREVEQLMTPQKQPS

| Compound | target | test | test system | conditions | inhibition |
| --- | --- | --- | --- | --- | --- |
| CC(=O)NC[C@H]1[C@H](O)[C@H](O)[C@@H]2[C@H](O)C[C@@H](CO)N21 | β-N-acetylglucosaminidase | enzyme activity, inhibitor, colorimetric | Canavalia ensiformis | 0.322 nM, together with: p-nitrophenyl GlcNAc substrate | 34.6% and 33.1% |
| Cc1c(O)cccc1C(=O)N[C@@H](CSc1ccccc1)[C@H](O)CN1C[C@H]2CCCC[C@H]2C[C@H]1C(=O)NC(C)(C)C | prp N63Q | enzyme activity, inhibitor | – | 10 µM, prp 21.4 nM, together with: FITC peptide substrate 0.5 µM | 24.2 ± 7.1% |
| CC(C)N1CCC[C@H]1CNC(=O)c1cn(C2CCCC2)c(=O)c2c1c1ccccc1n2C | sodium channel site 2 (rat) | radioligand binding | – | 10 µM | 49% |
| COCc1c(-c2cc3cc(C)cc(OC)c3s2)c2c(N)ncnn2c1CN1CCNC(=O)C1 | alpha1A adrenoceptor | radioligand binding | – | 10 µM | 11% |
| O=C(Nc1cnccc1Cl)N1CCN(Cc2ccc3c(c2)OC(F)(F)O3)CC1 | Testis-specific serine/threonine-protein kinase 2 (TSSK2, Homo sapiens, UniProt Q96PF2) | kinase activity, inhibitor | – | 50 µM, human, together with: CHKtide | 27% |
| O=C1C2CC=CCC2C(=O)N1SC(Cl)(Cl)Cl (centres unmarked) | Luciferin 4-monooxygenase (Photinus pyralis, UniProt P08659) | luciferase luminescence, inhibitor | cell-free | 50 µM, counter-screen | 25.8% |
| CC(C)(C)C(=O)Oc1ccc(S(=O)(=O)Nc2ccccc2C(=O)NCC(=O)O)cc1 | prp N63Q | enzyme activity, inhibitor | – | 10 µM, prp 21.4 nM, together with: FITC peptide substrate 0.5 µM | 39.2 ± 9% |
| CN(C(=O)n1cnc(-c2ccc[n+]([O-])c2)c1)C1CCCCC1 | Myotonin-protein kinase (DMPK, Homo sapiens, UniProt Q09013) | kinase activity, inhibitor | – | 50 µM, together with: Axltide substrate | 19% |
| Cn1cc(-c2cc(F)cc(N3CCn4c(cc5c4CCCC5)C3=O)c2CO)cc(Nc2ccc(N3CCN(C4COC4)CC3)cn2)c1=O | Tyrosine-protein kinase BTK (BTK, Homo sapiens, UniProt Q06187) | kinase activity | – | 0.1 µM | 91% |
| C=CCc1cccc(/C=N/NC(=O)CN2CCN(Cc3ccccc3)CC2)c1O | prp N63Q | enzyme activity | – | 10 µM, 21.4 nM enzyme dimer, together with: 0.5 µM FITC-labelled peptide substrate | -40.4 ± 21.4% |
| Cc1ncc(C)n2nc(/C=C/c3nc(N4CCCC4)cc(N4CCOCC4)n3)nc12 | GABA transporter | radioligand binding | – | 10 µM | -3% |
| C[C@@H](NC(=O)[C@@H](N)Cc1ccc(O)cc1)C(=O)NCC(=O)N[C@@H](Cc1ccccc1)C(=O)N(C)CCC[C@@]1(c2ccc(F)cc2)OCc2cc(C#N)ccc21 | ADRA2A | – | – | 10 µM | < 50% |
| COc1c2c(cc3c1-c1c(cc4c(c1OC)OCO4)C[C@H](C)[C@H](C)C3)OCO2 | Liver carboxylesterase 1 (CES1, Homo sapiens, UniProt P23141) | intracellular hydrolysis, inhibitor, bioluminescence imaging | renal cells | 20 µM | inhibited |
| COC(=O)N[C@H](C(=O)N1CCC[C@H]1c1nc(-c2ccc(-c3ccc(-c4c[nH]c([C@@H]5CCCN5C(=O)[C@@H](NC(=O)OC)C(C)C)n4)cc3)cc2)c[nH]1)C(C)C | prp N63Q | enzyme activity, inhibitor | – | 10 µM, prp 21.4 nM, together with: FITC peptide substrate 0.5 µM | 21.1 ± 4.6% |
| CCCCCC(=O)Nc1ccc2c(c1)B(O)OC2 | F2 | enzyme activity | – | 50 µM, together with: substrate 50 µM | ≤ 10% |
| COc1cc(Nc2ncc(F)c(Nc3ccc4c(n3)NC(=O)C(C)(C)O4)n2)cc(OC)c1OC | Ribosomal protein S6 kinase alpha-2 (RPS6KA2, Homo sapiens, UniProt Q15349) | KINOMEscan | – | 10 µM, RSK3(Kin.Dom.2-C-terminal) | 0% |
| C[C@@H]1N=C(c2ccccc2F)c2cc(Br)ccc2-n2cnc(C(=O)O)c21 | HTR7 | binding | – | 10 µM | 2.8 ± 4.2% |
| CN1CCN(c2cc(-c3ccncc3)c(-c3ccc4ccccc4c3)nn2)CC1 | Neuropeptide Y receptor type 4 (NPY4R, Homo sapiens, UniProt P50391) | antagonist, FLIPR | – | 10 µM | 18.8% |

| Compound | target | test | test system | conditions | inhibition |
| --- | --- | --- | --- | --- | --- |
| CC(=O)O/N=C1\C(=O)N(Cc2cc(Cl)ccc2Cl)c2ccc(Cl)cc21 | prp N63Q | enzyme activity | – | 10 µM, 21.4 nM enzyme dimer, together with: 0.5 µM FITC-labelled peptide substrate | -5.19 ± 25.4% |
| O=C(Nc1cccnn1)N1CCC(=Cc2cccc(Oc3ccc(C(F)(F)F)cn3)c2)CC1 | Fatty-acid amide hydrolase 1 (Faah, Rattus norvegicus, UniProt P97612) | probe labelling, inhibitor, competitive ABPP with azido-FP probe | rat brain soluble fraction | 0.01 µM | 57.1% |
| CC(C)C(NC(=O)c1ccco1)C(=O)NCC(c1ccco1)N1CCCCC1 (centres unmarked) | Beta-lactamase (ampC, Escherichia coli K-12, UniProt P00811) | enzyme activity, inhibitor | – | 10 µM, together with: CENTA substrate | 6% |
| O=C(Nc1ccc2c(c1)B(O)OC2)c1cccc(Oc2ccccc2)c1 | F2 | enzyme activity | – | 50 µM, together with: substrate 50 µM | ≤ 10% |
| O=c1ccc2ccccc2o1 | ADRA2A | antagonist radioligand binding | – | 10 µM, SafetyScreen44 | 1.88% |
| CC1=C(O)C(=O)C=C2C1=CC=C1[C@@]2(C)CC[C@@]2(C)[C@@H]3C[C@](C)(C(=O)O)CC[C@]3(C)CC[C@]12C | prp N63Q | enzyme activity, inhibitor | – | 10 µM, prp 21.4 nM, together with: FITC peptide substrate 0.5 µM | -42.1 ± 6.7% |
| CC[C@H](C)[C@H](NC(=O)[C@@H](NC(=O)[C@H](N)Cc1ccccc1)C(C)C)C(=O)N[C@@H](C)C(N)=O | Amyloid-beta precursor protein (APP, Homo sapiens, UniProt P05067) | amyloid-beta aggregation, thioflavin T fluorescence | – | 0.5 µM, 120 h, together with: 2 µM amyloid-beta | 60.1% |
| CN(CCN1CCC(OC(=O)Nc2ccccc2-c2ccccc2)CC1)C(=O)c1ccc(CN2CCC(C(N)=O)CC2)cc1 | rat GABA transporter | radioligand binding | – | 1 µM, together with: [3H]GABA 10 nM | 3% |
| COc1ccc(N2C(=O)N(c3c(C)cccc3Cl)Cc3cnc(Nc4ccc(C5CCN(C)CC5)cc4OC)nc32)nc1 | Interferon-induced, double-stranded RNA-activated protein kinase (EIF2AK2, Homo sapiens, UniProt P19525) | kinase activity | – | 0.5 µM | 5% |
| CC(C)(C)OC(=O)N1CCN(C(=O)n2cc(-c3ccc(OC(F)(F)F)cc3)nn2)C(Cc2ccccc2)C1 (centres unmarked) | Monoacylglycerol lipase ABHD6 (Abhd6, Mus musculus, UniProt Q8R2Y0) | enzyme activity | N2a membrane proteome | 30 nM | 54% |
| c1ccc(C(NCCNC(c2ccccc2)c2ccccc2)c2ccccc2)cc1 | Ca2+-ATPase, pig skeletal muscle | enzyme activity | – | 10 µM, Eurofins selectivity panel | -15% |
| OB1OCc2ccccc21 | F2 | enzyme activity | – | 50 µM, together with: substrate 50 µM | ≤ 10% |
| Cc1cnc(C(=O)N[C@H]2CCCCC/C=C\[C@@H]3C[C@@]3(C(=O)NS(=O)(=O)C3CC3)NC(=O)[C@@H]3C[C@@H](Oc4nc5ccccc5c5ccccc45)CN3C2=O)cn1 | prp N63Q | enzyme activity, inhibitor | – | 10 µM, prp 21.4 nM, together with: FITC peptide substrate 0.5 µM | 35.8 ± 3.9% |
| O=C(Nc1ccc2c(c1)B(O)OC2)c1ccc(Oc2ccccc2)cc1 | F2 | enzyme activity | – | 50 µM, together with: substrate 50 µM | ≤ 10% |
| Cn1cccc1-c1cccnc1 | HTR7 | binding | – | 50 µM | -53.8% |
| O=C(Nc1ccc2c(c1)B(O)OC2)c1cccc(OCc2c(Cl)cccc2Cl)c1 | F2 | enzyme activity | – | 50 µM, together with: substrate 50 µM | ≤ 10% |
| COC(=O)N[C@H](C(=O)N1CCC[C@H]1C(=O)Nc1ccc([C@@H]2CC[C@@H](c3ccc(NC(=O)[C@@H]4CCCN4C(=O)[C@@H](NC(=O)OC)C(C)C)cc3)N2c2ccc(C(C)(C)C)cc2)cc1)C(C)C | prp N63Q | enzyme activity, inhibitor | – | 10 µM, prp 21.4 nM, together with: FITC peptide substrate 0.5 µM | 17.9 ± 8% |
